Measurements pooled from the literature.
A part holds a random share of what one study measured. Positions count from the first letter of the parent shown.

Study 1
Target: RNA binding protein fox-1 homolog 2, RRM domain, GST-SBP tag (RBFOX2, Homo sapiens, UniProt O43251-10, residues 100-194)
Technique: RNA Bind-n-Seq
Molecule type: RNA
Matrix: in vitro
Tested at: 365 nM
Notes: natural RNA segment, single round, ends assumed
Relative to: no-protein control
Reading: higher = stronger binding
All sequences stand within: GGGAGUUCUACAGUCCGACGAUC … UGGAAUUCUCGGGUGCCAA
Target sequence (chain): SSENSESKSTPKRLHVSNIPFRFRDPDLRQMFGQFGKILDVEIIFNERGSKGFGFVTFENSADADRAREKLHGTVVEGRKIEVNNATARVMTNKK
Strand	RBNS enrichment (R)
UGUGUGUGGGCACAAGAGGACAUCUAACCACCUGCUCCUUGGAGGAGGCCCCCAGGGGUGGUAGAGGCUGGAAGGAAGCCACAUCAGGAGGACGCCACUCCGGCCCUUCA	0.36
CUCAGGGCCAAGCGGGGGCGUGGCUGGCCUUUCAGGUCCAGGCCAGUGGGCCUGGUAGCACAUGUCUGUCCUCAGAGCAGGGGCCAGAUGAUUUUCCUCCCUGGUUUGCA	4.56
AAAGAAAGAACGCUUCAACCCCCUUCCCCAUUUAGAUUAUUUAUUAACAUAUUUCGAAAGUAAGGUUAGCUCUAUAAAUAAUUUAGAGAGGUGAGAGUAUUUAUUUUUGG	0.461
UCUUAUUAGGAUGAUUUUCUAUUAUUAGGUCAAAAAGCUCUACCCAGGCAACAGACACAAUCUGUGCUGAUUAAACUGUCAGCUGGAUACCAGACUUUUAGGGAGACUGG	0.19
GCGUGGCCACGGGGGCAGUGUGAGGACCUCCCUGUCUCCCGGCUCCCCUCCCAGGGGAGCCAGCUGCUUGACCUAGCUCUUUGGGCCUCUCCUGCCCUCUGCUCUGCCUG	0.909
CUAGUUAUUAAAUGCACUAAACAAACAACUGCAUUUAAAGCAUUGGCCUUAGCAGAAGUGACUGACUUAAAGUGUUUUAGUUUCUUACUGAUGAGUGAAUUCAGUUCCCU	0.27
UCCUUGUGAACUGUGCAGAAGGAGUGAUCCCAGCAUCGGCAAGCGAGGGAGAAGACUGCACGAGAGUGAUGCGCAUUUCGAGUCUGCUUUUCGAUAGUUGAUGUCUUCUU	0.713
UCUGUUCCUCUCCCACGGCAGAUGCCCUCCUCUGUAUGCAAAUCAGCACAGCCUUUAUUGAGCUUUACAACUAACAACCUGAUAGUUGGCAGUUAAUUCACAGUUACAGA	0.253
GGGCAGCCCAGCCUCUGUCCCUCUUUGCCUGUGUGAGCAUCUCUGUGUACCCACUCCUCACUGCCCCACCAGCCACCUCUUGGGCAUGCUCAGCCCUUCCUAGAAGAGUC	0.676
UUGGACAUCAGUUUGUGUGUUCUGUAGGAAUUGUGUGCAUUCCAUUCACACAGUAUUUCUUUAGGAUGCUGUGAUGAUUUGAAUUACAAAUCCUACAGUCAAUAGCUAAA	0.273

Study 2
Target: ABI1, truncated, D143A, DHFR fusion (Arabidopsis thaliana)
Technique: DHFR PCA, deep sequencing
Matrix: yeast
Notes: methotrexate growth selection, single substitutions
Together with: (+)-ABA 0.032 µM
Relative to: wild-type fitted maximum
Reading: higher = stronger binding
Starting sequence: PYL1, truncated, DHFR fusion (Arabidopsis thaliana); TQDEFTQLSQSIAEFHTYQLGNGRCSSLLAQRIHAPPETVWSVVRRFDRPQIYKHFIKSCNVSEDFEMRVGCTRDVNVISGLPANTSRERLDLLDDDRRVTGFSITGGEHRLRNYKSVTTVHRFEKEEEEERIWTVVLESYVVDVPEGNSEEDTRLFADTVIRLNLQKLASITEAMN
Change	relative binding score [%]
V40D	-6.07
Y18M	2.94
E109V	5.41
G102E	-2.83
T39R	17.9
S26A	13.5
I33W	2.51
C72M	24.8

Other studies, line by line
Molecule	target or system	test	test system	setting	how to read	measurement	value
GSPLAKAFTSTGL	Saccharomyces cerevisiae	peptide binding, yeast competitive growth sequencing	peptide, cyclin E2-Cln2 fusion	library 1	direction not given	enrichment score	0.257
PhoQ, residues 284 288 289 292 302 303 NSMLDC	PhoP, residues 12 14 15 18 19 MHTVL (Escherichia coli, UniProt P23836)	Sort-seq, item: YFP reporter	E. coli	PhoQ-PhoP variant library, together with: 10 µM Mg2+	relative to: high Mg2+ state, higher = stronger signaling	fold induction	17.6
DKYDEGLYRFNSLNDL	Saccharomyces cerevisiae	binding, yeast competitive growth sequencing	peptide, cyclin D1-Cln2 strain, peptide tiling library	–	direction not given	enrichment score	1.88
DVSERGYVILPNDYFE	Saccharomyces cerevisiae	binding, yeast competitive growth sequencing	peptide, cyclin D1-Cln2 strain, peptide tiling library	–	direction not given	enrichment score	1.75
PSSMRKICTYFHR	Saccharomyces cerevisiae	peptide binding, yeast competitive growth sequencing	peptide, cyclin F-Cln2 fusion	library 2	direction not given	enrichment score	-0.612

A few entries again (study 1):
Strand	RBNS enrichment (R)
UUGGACAUCAGUUUGUGUGUUCUGUAGGAAUUGUGUGCAUUCCAUUCACACAGUAUUUCUUUAGGAUGCUGUGAUGAUUUGAAUUACAAAUCCUACAGUCAAUAGCUAAA	0.273
